Experimental data from different studies.
Protocols differ between the studies behind these lines.

SMILES	assay	system	conditions	scale	quantity	result
CC(C)c1c(C(=O)Nc2ccccc2)c(-c2ccccc2)c(-c2ccc(F)cc2)n1CC[C@@H](O)C[C@@H](O)CC(=O)O	item: Myositis	healthy human	oral, dose not given		subjects with adverse event	8.3%
C=C(C)[C@@H]1CC[C@]2(NCCN3CCS(=O)(=O)CC3)CC[C@]3(C)[C@H](CC[C@@H]4[C@@]5(C)CC=C(C6=CC[C@@](CF)(C(=O)O)CC6)C(C)(C)[C@@H]5CC[C@]43C)[C@@H]12		healthy human volunteers	oral, 500 mg, 7 days		subjects with back pain	0%
CN(C)C(=N)N=C(N)N	item: Vomiting	healthy human	oral, dose not given		subjects with adverse event	0%
C[C@H]1CN(C(=O)CC#N)[C@]12CCN(c1ncnc3[nH]ccc13)C2		healthy human	oral, dose not given		subjects with Arthralgia	3.1%
COC(=O)N[C@H](C(=O)N1CCC[C@H]1c1ncc(-c2cc(F)c3c(c2)O[C@@H](c2cnc(C4CC4)s2)n2c-3cc3cc(-c4cnc([C@@H]5CCCN5C(=O)[C@@H](NC(=O)OC)C(C)C)[nH]4)ccc32)[nH]1)C(C)C		healthy adult human	oral, 180 mg, 6 days, compound alone		subjects with heavy menstrual bleeding	0%
CC(=O)CC(c1ccccc1)c1c(O)c2ccccc2oc1=O (stereo not drawn)		human	concentration not given, trial 1		subjects with TEAE	12%
COc1c(C)c2c(c(O)c1C/C=C(\C)CCC(=O)OCCN1CCOCC1)C(=O)OC2		healthy human subjects	oral, dose not given		subjects with TEAEs	20.8%
CO[C@H]1/C=C/O[C@@]2(C)Oc3c(C)c(O)c4c(O)c(c(/C=N/N5CCN(C)CC5)c(O)c4c3C2=O)NC(=O)/C(C)=C\C=C\[C@H](C)[C@H](O)[C@@H](C)[C@@H](O)[C@@H](C)[C@H](OC(C)=O)[C@@H]1C	item: upper respiratory tract infection	humans	oral, dose not given		subjects with TEAEs	0%
C[C@H]1O[C@@H](O[C@H]2[C@@H](O)C[C@H](O[C@H]3[C@@H](O)C[C@H](O[C@H]4CC[C@@]5(C)[C@H](CC[C@@H]6[C@@H]5C[C@@H](O)[C@]5(C)[C@@H](C7=CC(=O)OC7)CC[C@]65O)C4)O[C@@H]3C)O[C@@H]2C)C[C@H](O)[C@@H]1O	item: Headache	healthy human	oral, dose not given		subjects with adverse event	4.2%
Cc1cc(-c2nccc3c2ccn3CC(=O)Nc2ccc(-c3cnccn3)cn2)ccn1		human	15 mg once daily, multiple ascending dose		subjects with Folliculitis adverse event	0%
CC(C)n1c(Nc2cccnc2)nc2cnc(Nc3ccc(N4CCN(C)CC4)cc3)nc21	item: skin and subcutaneous disorders (SOC)	healthy human, male	oral, dose not given, CTCAE grade 1-3		subjects with TEAE	4.8%
C[C@@H](N)c1cc(Cl)ccc1Cn1c(=S)[nH]c(=O)c2[nH]ccc21		human severe renal impairment	oral, 2.5 mg single dose		subjects with nausea	0%
CN1C(=O)[C@@H](NC(=O)c2nnc(Cc3ccccc3)[nH]2)COc2cccnc21		human, fasted	oral, 100 mg single dose		subjects with headache	16.7%
CO[C@]1(C(=O)N[C@@H](C)c2ccc(-n3cc(F)cn3)nc2)CC[C@H](c2nc(C)cc(Nc3cc(C)[nH]n3)n2)CC1		healthy human, both sexes	oral, 200 mg		subjects with constipation	20%
C[C@@H](Oc1ccc(S(C)(=O)=O)cc1C(=O)N1C[C@@H]2C[C@]2(c2cc(C(F)(F)F)on2)C1)C(F)(F)F		human	oral, 25 mg		subjects with psychiatric disorders	16.7%
CC(=O)N(C)[C@H]1CCN(C(=O)c2cnc3c(c2)C[C@](C)(c2ccc(F)cc2)N3)C1		healthy male humans	oral, dose not given, multiple rising dose		subjects with AEs leading to discontinuation	4.2%
CCC(C)n1ncn(-c2ccc(N3CCN(c4ccc(OCC5COC(Cn6cncn6)(c6ccc(Cl)cc6Cl)O5)cc4)CC3)cc2)c1=O (stereo not drawn)		healthy humans	oral, 200 mg, dosed days 8 and 9		subjects with abnormal faeces	0%
O=C(COc1ccc(Cl)cc1)NC12CC(c3nnc([C@H]4C[C@@H](OC(F)(F)F)C4)o3)(C1)C2		humans	concentration not given		subjects with moderate TEAE	28.6%
Cc1nc(Nc2ncc(C(=O)Nc3c(C)cccc3Cl)s2)cc(N2CCN(CCO)CC2)n1		human	oral, 100 mg		subjects with related SAE	0%
C[C@@H](c1nc(-c2ccc(C#N)cc2)cs1)[C@](O)(Cn1cncn1)c1cc(F)ccc1F	gastroesophageal reflux disease	human	oral, dose not given, added: ethinyl estradiol/norethindrone		subjects with adverse event	4.3%
CC[C@H](C)[C@H](NC(=O)[C@H](Cc1ccccc1)NC(=O)[C@H](CCC(=O)O)NC(=O)[C@H](CCCCNC(=O)COCCOCCNC(=O)COCCOCCNC(=O)CC[C@H](NC(=O)CCCCCCCCCCCCCCCCC(=O)O)C(=O)O)NC(=O)[C@H](C)NC(=O)[C@H](C)NC(=O)[C@H](CCC(N)=O)NC(=O)CNC(=O)[C@H](CCC(=O)O)NC(=O)[C@H](CC(C)C)NC(=O)[C@H](Cc1ccc(O)cc1)NC(=O)[C@H](CO)NC(=O)[C@H](CO)NC(=O)[C@@H](NC(=O)[C@H](CC(=O)O)NC(=O)[C@H](CO)NC(=O)[C@@H](NC(=O)[C@H](Cc1ccccc1)NC(=O)[C@@H](NC(=O)CNC(=O)[C@H](CCC(=O)O)NC(=O)C(C)(C)NC(=O)[C@@H](N)Cc1cnc[nH]1)[C@@H](C)O)[C@@H](C)O)C(C)C)C(=O)N[C@@H](C)C(=O)N[C@@H](Cc1c[nH]c2ccccc12)C(=O)N[C@@H](CC(C)C)C(=O)N[C@H](C(=O)N[C@@H](CCCNC(=N)N)C(=O)NCC(=O)N[C@@H](CCCNC(=N)N)C(=O)NCC(=O)O)C(C)C		healthy humans	subcutaneous, 0.25 to 1.5 mg weekly, escalated, 16 weeks, Moderate severity		subjects with adverse events	61.4%
CCO		human			subjects with treatment-emergent adverse events	88.9%
CN(Cc1cnc2nc(N)nc(N)c2n1)c1ccc(C(=O)N[C@@H](CCC(=O)O)C(=O)O)cc1	item: any adverse event	healthy human	oral, dose not given	baseline: subjects	subjects with adverse event	3%
CC(C)(C(=O)N1CCOc2c(C#N)cncc2C1)C(F)F		human, both sexes	oral, 20 mg single dose		subjects with presyncope TEAE	0%
